Published values from different studies.
Values joined by “and” are separate records of one study, mostly repeats; a detail may differ. ± marks the error that the study gave.

For Cn1cc(Nc2nccc(-c3ccc4c(c3)CN(C3COC3)CC[C@H]4NC(=O)c3cn(C(C)(C)C)nn3)n2)cn1, “NK cell count change” read 9.32% (human, whole blood; 300 mg twice daily, day 7; reference: pre-dose baseline).
Cc1c2oc3c(C)ccc(C(=O)N[C@@H]4C(=O)N[C@H](C(C)C)C(=O)N5CCC[C@H]5C(=O)N(C)CC(=O)N(C)[C@@H](C(C)C)C(=O)O[C@@H]4C)c3nc-2c(C(=O)N[C@@H]2C(=O)N[C@H](C(C)C)C(=O)N3CCC[C@H]3C(=O)N(C)CC(=O)N(C)[C@@H](C(C)C)C(=O)O[C@@H]2C)c(N)c1=O: “median plasma concentration” 1.8 µg/L (LC-MS; children with cancer, plasma; dose not given, 22 h).
CN(C(=O)n1cnc(-c2ccc[n+]([O-])c2)c1)[C@H]1CC[C@H](O)CC1 gave a concentration of 9.4 ± 0.1 ng/g (Wistar rat, pons; oral, 10 mg/kg/day of BIA 10-2474, 24 h, repeated 5 days).
With O=C1CCC(N2Cc3cc(CO)c(F)cc3C2=O)C(=O)N1 (stereo not shown) the plasma concentration was 0.83 ± 0.26 ng/mL (cynomolgus monkey, male; oral, 0.3 mg/kg parent drug, 1 h).
C=CC(=O)N(C)CCOc1c(N)ncnc1-c1cc(F)cc(NC(=O)c2ccc(C3CC3)cc2F)c1C has a Cmax of 85.9 ng/mL (human, whole blood; oral, 25 mg once daily, day 12).
The viability of Clc1ccc(-c2csc(NN=C3CCCC3)n2)cc1 is reported as 104% (OCI-Ly1; 0.1 µM, 120 h).
For Cc1cc(C)c(CNC(=O)c2cc(Cl)c3c(c2C)O[C@@](C)([C@H]2CC[C@H](N(C)C)CC2)O3)c(=O)[nH]1, “patients with grade ≥3 TEAE” read 0% (item: Pain; human patients; oral, 200 mg once daily, 1 day onset day 14).
With COc1cc(CCC(=O)O)ccc1O[C@@H]1O[C@H](C(=O)O)[C@@H](O)[C@H](O)[C@H]1O the plasma concentration was 297 nM (human plasma; median).
O=C1CC[C@H](N2Cc3cc(N4CCN(CC5CCN(c6ccc([C@@H]7c8ccc(O)cc8CC[C@@H]7c7ccccc7)cc6)CC5)CC4)ccc3C2=O)C(=O)N1 gave a dose excreted of 10.1% (radiolabelled mass balance; Sprague-Dawley rat, female, bile duct-cannulated, bile; oral, 20 mg/kg, up to 72 h).
Cc1c(Cl)c(C)[n+]([O-])c(Cl)c1-c1noc(-c2cc(O)c(O)c([N+](=O)[O-])c2)n1 — result for “TEAE leading to discontinuation”: 0% (healthy Chinese subjects; oral, 100 mg).
The amount permeated of CN(C)c1cc(NC(=O)CNC(C)(C)C)c(O)c2c1C[C@H]1C[C@H]3[C@H](N(C)C)C(O)=C(C(N)=O)C(=O)[C@@]3(O)C(O)=C1C2=O is reported as 3.48 nmol (starch gel membrane permeability; Gram-negative envelope surrogate; 200 µM, 90 min, pH 7.4).
O=C(Nc1nc2cccc(-c3ccc(CN4CCS(=O)(=O)CC4)cc3)n2n1)C1CC1 — result for “treatment-emergent adverse events”: 0% (item: blood and lymphatic disorders; rheumatoid arthritis patients; oral, 300 mg once daily, 4 weeks, any relatedness).
C[C@H]1CN(C(=O)CC#N)[C@]12CCN(c1ncnc3[nH]ccc13)C2: “participants with catheter site bruise” 0% (human; oral, 12 mg single dose).
With O=C(NCc1ccccc1)c1c(/N=C/c2c(O)ccc3ccccc23)sc2c1CCCC2 the viability was 92.4% (OCI-Ly1; 0.1 µM, 120 h).
Cn1c(=O)[nH]c2nc[nH]c2c1=O — result for “samples above LOQ”: 0% (human, both sexes, cerebrospinal fluid).
Cc1cc(-c2nccc3c2ccn3CC(=O)Nc2ccc(-c3cnccn3)cn2)ccn1 has an AUCtau of 1.35 µM·h (human, plasma; oral, 20 mg once daily, day 1, geometric mean).
CCc1c(-c2ccccc2)c(-c2ccccc2)nn1-c1ccccc1-c1cccc(OCC(=O)O)c1 — result for “AUC extrapolated observed”: 0.214% and 0.114% and 0.0943% (Sprague-Dawley rat; oral, dose not given).
CC(C)(Sc1ccncc1-c1ccc(C#N)c2ccccc12)C(=O)O has an AUC(0-24) of 87.6 ng·h/mL (human, plasma; oral, 5 mg once daily, together with: febuxostat 10 mg).
For CCCCCCOC(=O)NC(=N)c1ccc(NCc2nc3cc(C(=O)N(CCC(=O)OCC)c4ccccn4)ccc3n2C)cc1, “participants with TRAE headache” read 0% (human; oral, 75 mg, compound alone).
For Cc1ccc(C(=O)N(CCCN)C(c2nc3snc(C)c3c(=O)n2Cc2ccccc2)C(C)C)cc1 (stereo not shown), “grade ≥3 dysphagia patients” read 0% (human patients; intravenous, 2 mg/day).
For O=c1c(O)c(-c2ccc(O)c(OS(=O)(=O)O)c2)oc2cc(O)cc(O)c12, the plasma concentration was 970 nM (human plasma; mean).
The rectal temperature of O=C1NCCc2nc(OCc3cccc(F)c3)ccc21 is reported as 36.1 °C (modified Irwin test; Sprague-Dawley rat, male; oral, 100 mg/kg, 4 h).

A few entries again:
The viability of Clc1ccc(-c2csc(NN=C3CCCC3)n2)cc1 is reported as 104% (OCI-Ly1; 0.1 µM, 120 h).
